Assay results gathered from unrelated publications.
Parts stem from different laboratories: compare values within a part only. Substitutions count along the parent as printed.
Chain of UniProt Q9Y385 (whole entry, looked up): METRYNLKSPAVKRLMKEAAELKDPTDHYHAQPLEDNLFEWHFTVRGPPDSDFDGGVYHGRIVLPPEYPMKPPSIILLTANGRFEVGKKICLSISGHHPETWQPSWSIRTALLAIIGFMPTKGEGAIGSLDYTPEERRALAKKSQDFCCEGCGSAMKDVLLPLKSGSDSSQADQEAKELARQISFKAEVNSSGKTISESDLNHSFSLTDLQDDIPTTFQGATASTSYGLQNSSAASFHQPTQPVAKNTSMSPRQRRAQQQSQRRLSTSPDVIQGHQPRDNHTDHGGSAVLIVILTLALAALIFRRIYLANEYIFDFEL
Chain of UniProt Q9H832 (whole entry, looked up): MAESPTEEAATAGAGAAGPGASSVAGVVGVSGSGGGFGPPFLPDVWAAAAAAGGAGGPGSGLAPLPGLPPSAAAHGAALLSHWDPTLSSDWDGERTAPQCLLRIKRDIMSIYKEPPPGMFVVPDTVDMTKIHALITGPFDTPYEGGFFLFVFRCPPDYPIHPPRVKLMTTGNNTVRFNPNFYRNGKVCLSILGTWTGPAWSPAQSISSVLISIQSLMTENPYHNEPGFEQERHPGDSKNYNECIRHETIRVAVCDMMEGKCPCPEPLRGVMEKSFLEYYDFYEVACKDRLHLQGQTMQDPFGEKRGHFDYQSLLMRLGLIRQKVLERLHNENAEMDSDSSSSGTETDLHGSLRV
Chain of UniProt Q9FX25 (whole entry, looked up): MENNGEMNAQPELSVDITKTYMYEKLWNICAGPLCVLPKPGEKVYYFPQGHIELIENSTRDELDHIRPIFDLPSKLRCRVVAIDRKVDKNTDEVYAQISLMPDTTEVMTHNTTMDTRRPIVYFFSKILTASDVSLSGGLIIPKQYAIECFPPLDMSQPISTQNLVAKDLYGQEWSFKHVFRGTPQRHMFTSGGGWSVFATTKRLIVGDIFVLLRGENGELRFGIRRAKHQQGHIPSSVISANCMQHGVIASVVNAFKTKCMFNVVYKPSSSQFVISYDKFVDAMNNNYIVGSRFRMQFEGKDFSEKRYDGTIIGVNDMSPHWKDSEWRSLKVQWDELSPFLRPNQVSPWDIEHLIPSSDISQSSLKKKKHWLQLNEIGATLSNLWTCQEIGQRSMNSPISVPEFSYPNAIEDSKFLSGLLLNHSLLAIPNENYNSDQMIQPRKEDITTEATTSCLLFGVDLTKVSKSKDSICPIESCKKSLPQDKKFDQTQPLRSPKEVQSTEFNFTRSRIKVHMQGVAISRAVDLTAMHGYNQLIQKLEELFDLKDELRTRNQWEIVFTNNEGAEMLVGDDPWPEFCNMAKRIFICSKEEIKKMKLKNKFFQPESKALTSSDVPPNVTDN
Chain of UniProt Q84WU6 (whole entry, looked up): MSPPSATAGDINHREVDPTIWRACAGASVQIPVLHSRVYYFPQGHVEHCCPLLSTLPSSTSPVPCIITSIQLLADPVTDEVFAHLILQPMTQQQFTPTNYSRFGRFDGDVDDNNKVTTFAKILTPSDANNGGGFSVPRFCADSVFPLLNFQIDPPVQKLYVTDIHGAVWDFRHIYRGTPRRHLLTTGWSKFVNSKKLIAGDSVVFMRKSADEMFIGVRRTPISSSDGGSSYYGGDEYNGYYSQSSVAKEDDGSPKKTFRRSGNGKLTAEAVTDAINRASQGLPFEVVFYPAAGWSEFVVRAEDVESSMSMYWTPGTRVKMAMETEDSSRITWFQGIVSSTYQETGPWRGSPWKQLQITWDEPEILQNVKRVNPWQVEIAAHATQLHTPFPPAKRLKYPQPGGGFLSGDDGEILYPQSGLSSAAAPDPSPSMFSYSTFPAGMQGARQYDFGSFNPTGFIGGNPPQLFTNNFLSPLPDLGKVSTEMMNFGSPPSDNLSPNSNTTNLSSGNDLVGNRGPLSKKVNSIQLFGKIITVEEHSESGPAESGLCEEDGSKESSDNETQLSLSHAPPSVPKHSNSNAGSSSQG
Chain of UniProt P62253 (whole entry, looked up): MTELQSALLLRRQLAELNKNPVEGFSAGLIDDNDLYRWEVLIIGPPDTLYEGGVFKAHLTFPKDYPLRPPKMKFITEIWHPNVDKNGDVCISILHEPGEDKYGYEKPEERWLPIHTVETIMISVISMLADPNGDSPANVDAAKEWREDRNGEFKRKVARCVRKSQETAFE

Sample 1 — technique: protein-binding microarray; molecule type: double-stranded DNA, one strand shown; medium: in vitro; tested at: 940 nM top; notes: 60-bp whole probe; added: salmon DNA 0.4 mg/ml; baseline: random background probes; direction: higher = stronger binding; constant ends, left off below: GCCTAGCAC … GTCTTGATTCGCTTGACGCTGCTG
Target: Interferon regulatory factor 5, full length, phosphomimetic (IRF5, Homo sapiens, UniProt Q13568-2, residues 1-514, S451D/S453D/S456D/S462D)
Sequence	fitted relative affinity
GACGGACTGGGGTTTCCGGACGTGCTA	0.13 z-score
TGTTTTTCATTGTTTTTCATCGTGCTA	2.01 z-score
TGTGCTTTCCTGATGGTTCTGTGCTAG	-0.111 z-score
AGTGTTATAATATTATTGCAGTGCTAG	-0.256 z-score
TCATAAATCTTTGTTGGAACTGTGCTA	0.189 z-score
AACGATCTCAGTTTCGAGACGTGCTAG	3.75 z-score
GACGAACTCGGGTTTCGAGACGTGCTA	1.7 z-score
GGAGCGCCAGGCCCCGGCAGGTGCTAG	-0.896 z-score
TTAGGTTTCCTTTTCCTTGAGTGCTAG	2.36 z-score
TTAGGACTGGACTATCGATTAGTGCTA	-0.135 z-score
TTAGAACTGGGGTTTCTATTAGTGCTA	1.23 z-score
ATAGGTCTCCTTTTCCTTTAGTGCTAG	0.661 z-score
TTAGGTACCGGGTTTCGGTTAGTGCTA	5.64 z-score
TCATCTATGTAGTTGATACTGTGCTAG	-0.317 z-score
TTAGGTTTCGGGACTGGATTAGTGCTA	7.85 z-score
GACGGACTGGGGACTGGGAACGTGCTA	-0.147 z-score
GACGGTATCGGGAATCGGGACGTGCTA	3.31 z-score

Sample 2 — technique: protein binding microarray; molecule type: double-stranded DNA, one strand shown; medium: in vitro; tested at: not given; baseline: not given; direction: higher = stronger binding
Target: Histone acetyltransferase KAT6A, winged helix 2, GST fusion (KAT6A, Homo sapiens, UniProt Q92794, residues 85-181)
Notes: 8-mer, flanks averaged, mean of 2 arrays, mostly near background
Construct (chain): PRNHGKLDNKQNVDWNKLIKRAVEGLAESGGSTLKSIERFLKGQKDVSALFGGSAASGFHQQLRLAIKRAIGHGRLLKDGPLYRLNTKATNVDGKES
Sequence	E-score
AACGAATC	-0.0645
GAATGTAA	0.0217
CGGAACAA	0.152
TGTTGCAA	0.00895
AGGGCAAA	-0.0308
CGCCCGGA	0.143
CCTGCTAC	0.152
CGGAAAGC	0.172
CCCCGTGC	0.148
AATGTGAC	-0.0216
CTGTAGCC	-0.0939
AAGCCTCC	0.122
GCTGAGTA	0.0588
CTTTGTAA	0.137
CAGAATCG	0.0919
ACCCAATG	-0.195
TACCGCCA	0.0768
TAAAGTTA	0.167
CTGGCATC	-0.0988
TCAGGCGA	0.0985
GATAGGTA	-0.0825
ACTCTGAT	-0.0242

Sample 3 — technique: RNA Bind-n-Seq; molecule type: RNA; medium: in vitro; tested at: 200 nM; notes: whole 134-nt RNA, ends assumed; added: 150 mM LiCl; baseline: input library; direction: higher = stronger binding; library: 7-deaza-guanosine replaces G
Target: Ras GTPase-activating protein-binding protein 1, full length (G3BP1, Homo sapiens, UniProt Q13283)
Chain of UniProt Q13283 (whole entry, looked up): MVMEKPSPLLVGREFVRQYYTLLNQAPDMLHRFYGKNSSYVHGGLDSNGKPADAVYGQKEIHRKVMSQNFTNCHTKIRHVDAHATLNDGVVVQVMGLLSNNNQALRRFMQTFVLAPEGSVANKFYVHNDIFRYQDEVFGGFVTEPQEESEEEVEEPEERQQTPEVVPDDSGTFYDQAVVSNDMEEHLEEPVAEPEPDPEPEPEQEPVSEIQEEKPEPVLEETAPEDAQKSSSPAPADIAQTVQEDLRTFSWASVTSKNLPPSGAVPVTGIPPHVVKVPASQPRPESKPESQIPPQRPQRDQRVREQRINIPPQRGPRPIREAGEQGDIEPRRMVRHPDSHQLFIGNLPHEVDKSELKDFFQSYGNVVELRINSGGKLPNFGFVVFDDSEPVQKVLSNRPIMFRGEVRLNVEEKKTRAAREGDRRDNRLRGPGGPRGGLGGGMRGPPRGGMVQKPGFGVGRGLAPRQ
Sequence	log2 enrichment
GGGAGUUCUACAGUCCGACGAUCUGUUGAUGCUGUAAUUGCUGAACUUAAAAAGCAGUCUAAACCUGUGACCACCCCUGAAGAAAUUGCACAGGUAAGGACUUAACAUGUUACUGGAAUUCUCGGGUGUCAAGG	0.368
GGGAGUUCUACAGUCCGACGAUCUGGGAGGUGGAUUUUGUUUAUUUUUUUAGCUCAUUUCCAGGGGUGGGAAUUUUUUUUUAAUAUGUGUCAUGAAUAAAGUUGUUUUUGAAAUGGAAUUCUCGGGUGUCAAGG	-0.324
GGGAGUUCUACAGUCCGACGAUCAAGUCCUGUGCUACACAUCGUAUGUACCGAAUCGGCCCCGGGCCCCGGCCCCGGGGAAAGUAUUAUGUUACGCCGUUCGGAUCUGCACUUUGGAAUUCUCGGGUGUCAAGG	-0.577
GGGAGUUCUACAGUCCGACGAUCUUGAACAUCUGCAGGAAAAGAGGCGAGAGGGCACUUUGAGAGUGGAUACCUACACUCUAGUGCAGCCUGAGGCAGAAGACCAUGUUGAGAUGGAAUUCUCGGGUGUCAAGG	-0.739
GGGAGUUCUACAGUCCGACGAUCGGAUUGGUAGCUUAUGUCGAUCUUGAUGAAAGAGCAAUUGAUGCUCUCAGGGAAUUUAAUGAAGAAGGAGCUCUGUCUGUACUACAGCAGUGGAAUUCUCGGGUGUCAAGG	0.11
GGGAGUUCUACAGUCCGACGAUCCUGUGCUACACAUCGUAUGUACCGAAUCGGGGAAAGGGGAAAAAAAGGGGAAAAAAAGGGGAAAGUAUUAUGUUACGCCGUUCGGAUCUGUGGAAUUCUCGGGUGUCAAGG	0.758
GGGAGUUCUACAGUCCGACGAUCAGUCCUGUGCUACACAUCGUAUGUACCGAAUCGGGGUUUGGGGAGGGGUUUUUGGGGAAAGUAUUAUGUUACGCCGUUCGGAUCUGCACUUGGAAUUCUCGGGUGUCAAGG	0.00764

Sample 4 — technique: RNA Bind-n-Seq; molecule type: RNA; medium: in vitro; tested at: 365 nM; baseline: no-protein control; direction: higher = stronger binding
Target: RNA binding protein fox-1 homolog 2, RRM domain, GST-SBP tag (RBFOX2, Homo sapiens, UniProt O43251-10, residues 100-194)
Notes: natural RNA segment, single round, ends assumed
Sequence	RBNS enrichment (R)
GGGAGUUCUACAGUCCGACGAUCGGACAUGCUUGGUGCUUUUGGUAUGCUGCAAACACAAAGUGGUGGAACAAGGGUCACUGGACCCUUGGGGAAAGUGGGAAAAGAGCUAUGUGCAAGGGCAGAUGCUCCAAUGGAAUUCUCGGGUGCCAA	3.96
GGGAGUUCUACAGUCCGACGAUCCUCUGCCAAGUGUCCCUGUGCUCCAGCACCUUCCUUGAAGGACUGACGCCCACCCCACGCUCUUUGCGAGGUUGUCCAGGCUGUGUUUGUCGCAUGCUCUUCUUCUGUAUUGGAAUUCUCGGGUGCCAA	9.39
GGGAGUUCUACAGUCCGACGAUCAACUCAGCCAGGAAUGUGGCUCACACCUGUAAUCCCAGCACUUUGGGACACCUAGGUGGGAGCAUCGCUUGAAGCCAGGAGUUCAAGACCAGCUUGGGCAACGUAGUGAGUGGAAUUCUCGGGUGCCAA	2.01
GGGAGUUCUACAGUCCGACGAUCCCAGACUUUAUAUUACAUCUCUGAAGUUCUUGAUGUGGGGAAGAUUGACUUUUAUUCCAUUUUUAUAUGAAGGUGUUAGAUAUAGCCAUCAAUUUAUUUUUCUACAUUCCUGGAAUUCUCGGGUGCCAA	0.449
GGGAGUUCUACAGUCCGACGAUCGUGUUUGCAUGAGUGUGUGUAGCUUCAUGCUUUGGGAGUUGGCAAGAGGAAGAGGGAGGGAAGGGGAGCAAGCAAAUCCAGGUCUUUUCUUGUACCAGUGGAACCUGCUCUGGAAUUCUCGGGUGCCAA	3.13

Sample 5 — technique: DHFR PCA, deep sequencing; medium: yeast; added: (+)-ABA 200 µM; baseline: wild-type fitted maximum; direction: higher = stronger binding
Target: ABI1, truncated, D143A, DHFR fusion (Arabidopsis thaliana)
Notes: methotrexate growth selection, single substitutions
Parent: PYL1, truncated, DHFR fusion (Arabidopsis thaliana); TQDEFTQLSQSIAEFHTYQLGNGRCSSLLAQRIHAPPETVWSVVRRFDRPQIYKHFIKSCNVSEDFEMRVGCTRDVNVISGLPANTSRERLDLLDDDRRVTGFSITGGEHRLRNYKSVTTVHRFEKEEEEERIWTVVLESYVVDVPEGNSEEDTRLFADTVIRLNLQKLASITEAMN
Change	relative binding score [%]
Q51R	53.1
V137D	8.5
N165K	40.7
K168R	96.3
E4V	98.2
V70E	90
F157C	8.09
V100T	81.9
R113Q	108
V100F	60.7
P37W	65.4

Sample 6 — technique: yeast two-hybrid; medium: yeast; notes: mostly zero background; baseline: not given; direction: higher = stronger interaction
Sequence: NTAPSLTVPECAICLQTCVHPVSLPCKHVFCYLCVKGASWLGKRCALCRQEIPEDFLDK (RNF146 RING domain (UniProt Q9NTX7))
target	lacZ reporter activity
UBE2J1 UBC core domain (UniProt Q9Y385)	0
UBE2G1 UBC core domain (UniProt P62253)	0
UBE2Z UBC core domain (UniProt Q9H832)	0

Sample 7 — target: CCNB1, cyclin fold, Cln2 fusion (human); technique: yeast growth competition, sequencing; medium: yeast; notes: weak parent motif; baseline: not given; direction: higher = stronger binding
Parent: ORC1 docking peptide (human); PRARKRLELGNLG
Change	normalised enrichment score
PRARKRLYLGNLG [E8Y]	0.0116
PRAAKRLELGNLG [R4A]	0.932
PRARARLELGNLG [K5A]	0.0821
PIARKRLELGNLG [R2I]	0.915
PRARKRNELGNLG [L7N]	-0.000331
PRARKRLELGELG [N11E]	0.00872
PRARKRLELGWLG [N11W]	0.755
PRARKRPELGNLG [L7P]	-0.198
PRAVKRLELGNLG [R4V]	0.307
PHARKRLELGNLG [R2H]	0.318
PRARKRLELGDLG [N11D]	0.822
PRARKRLELGYLG [N11Y]	1.33

Mixed results
Substance	partner	technique	notes	baseline	direction	endpoint	value
ARF13 (Arabidopsis thaliana, UniProt Q9FX25)	ARF17 (Arabidopsis thaliana, UniProt Q84WU6)	two-hybrid	weak activation fusion	out of 4 tests	higher = firmer interaction	positive tests	0

Repeated from above (sample 7):
Change	normalised enrichment score
PRARKRLELGWLG [N11W]	0.755
PRARKRLELGDLG [N11D]	0.822
PRARKRLELGELG [N11E]	0.00872
PIARKRLELGNLG [R2I]	0.915
PHARKRLELGNLG [R2H]	0.318
PRARKRNELGNLG [L7N]	-0.000331
PRARKRLYLGNLG [E8Y]	0.0116
PRARARLELGNLG [K5A]	0.0821
PRAAKRLELGNLG [R4A]	0.932
PRAVKRLELGNLG [R4V]	0.307
